Results collected from several papers.
Protocols differ between the studies behind these lines. ± marks the error that the study gave.

SMILES	system	conditions	tissue uptake [%ID/g]
CN(C)c1ccc(-c2nc3ccc(OCCCCCN4CCN5CCN(CC4)CC(=O)[O][Al]([18F])[O]C(=O)C5)cc3s2)cc1	ICR mouse, pancreas	intravenous, 10 min	3.16 ± 0.66
CC(C)[C@H](NC(=O)[C@@H]1CCCN1C(=O)[C@H](CCCNC(=N)N)NC(=O)[C@H](CS)NC(=O)[C@H](Cc1c[nH]c2ccccc12)NC(=O)[C@H](CCCNC(=N)N)NC(=O)[C@@H](Cc1ccccc1)NC(=O)[C@H](Cc1c[nH]cn1)NC(=O)[C@H](CCC(=O)O)NC(=O)[C@H](CS)NC(=O)[C@H](CS)NC(=O)CNC(=O)[C@@H]1CC(=O)N[C@@H](CCCNC(=N)N)C(=O)NCC(=O)N[C@@H](CC(=O)O)C(=O)N[C@H](Cc2ccc(O)cc2)C(=O)N1)C(N)=O [technetium-99m labelled]	C57 mouse, female, B16/F1 melanoma, lung	intravenous, 0.037 MBq, 0.5 h	7.49 ± 2.03
O=C([O-])CN1CCN(CC(=O)[O-])CCN(CC(=O)NCCc2ccc3c(c2)C2C=CCC2C(c2cc4c(cc2Br)OCO4)N3)CCN(CC(=O)[O-])CC1.[111In+3] (centres unmarked)	mouse, Hec50 endometrial tumour, small intestine	0.5 h post injection	11.1 ± 0.84
CCCC[C@H](NC(=O)CNC(=O)CNC(=O)CN1CCN(CC(=O)O)CCN(CC(=O)O)CC1)C(=O)N[C@H]1CC(=O)NCCCC[C@@H](C(N)=O)NC(=O)[C@H](Cc2c[nH]c3ccccc23)NC(=O)[C@H](CCCNC(=N)N)NC(=O)[C@@H](Cc2ccccc2)NC(=O)[C@H](Cc2c[nH]cn2)NC1=O [copper-64 labelled]	female C57 mouse, B16/F1 melanoma, tumor	intravenous, 0.037 MBq, 2 h	12.4 ± 1.61
CN1C(=O)[C@@H](Cc2ccc(O)c(I)c2)NC(=O)CNC(=O)[C@H](Cc2ccc3ccccc3c2)NC(=O)[C@H](CCCNC(=N)N)NC(=O)[C@H]1CCCNC(=O)c1ccc(CNC(=O)CN2CCN(CC(=O)O)CCN(CC(=O)O)CCN(CC(=O)O)CC2)cc1 [lutetium-177 labelled]	female CB-17 SCID mouse, Daudi xenograft, uterus	intravenous, 6 h, CXCR4 blocking, with: AMD3100 2 mg/kg coinjected	0.39 ± 0.07
CC(C)[C@H](NC(=O)[C@@H]1CCCN1C(=O)[C@H](CCCNC(=N)N)NC(=O)[C@H](CS)NC(=O)[C@H](Cc1c[nH]c2ccccc12)NC(=O)[C@H](CCCNC(=N)N)NC(=O)[C@@H](Cc1ccccc1)NC(=O)[C@H](Cc1c[nH]cn1)NC(=O)[C@H](CCC(=O)O)NC(=O)[C@H](CS)NC(=O)[C@H](CS)NC(=O)[C@@H]1CC(=O)N[C@@H](CCCNC(=N)N)C(=O)NCC(=O)N[C@@H](CC(=O)O)C(=O)N[C@H](Cc2ccc(O)cc2)C(=O)N1)C(N)=O [technetium-99m labelled]	C57 mouse, female, B16/F1 melanoma, pancreas	intravenous, 0.037 MBq, 24 h	0.12 ± 0.07
CCCC[C@H](NC(=O)CNC(=O)CNC(=O)CN1CCN(CC(=O)O)CCN(CC(=O)O)CCN(CC(=O)O)CC1)C(=O)N[C@H]1CC(=O)NCCCC[C@@H](C(N)=O)NC(=O)[C@H](Cc2c[nH]c3ccccc23)NC(=O)[C@H](CCCNC(=N)N)NC(=O)[C@@H](Cc2ccccc2)NC(=O)[C@H](Cc2c[nH]cn2)NC1=O [lead-203 labelled]	C57 mouse, liver	intravenous, 0.056 MBq, 4 h	1.08 ± 0.34
CCCC[C@H](NC(=O)CNC(=O)CNC(=O)CN1CCN(CC(=O)O)CCN(CC(=O)O)CCN(CC(=O)O)CC1)C(=O)N[C@H]1CC(=O)NCCCC[C@@H](C(N)=O)NC(=O)[C@H](Cc2c[nH]c3ccccc23)NC(=O)[C@H](CCCNC(=N)N)NC(=O)[C@@H](Cc2ccccc2)NC(=O)[C@H](Cc2c[nH]cn2)NC1=O [copper-64 labelled]	C57 mouse B16/F1 melanoma, tumor	0.5 h	5.61 ± 0.91

A few entries again:
SMILES	system	conditions	tissue uptake [%ID/g]
O=C([O-])CN1CCN(CC(=O)[O-])CCN(CC(=O)NCCc2ccc3c(c2)C2C=CCC2C(c2cc4c(cc2Br)OCO4)N3)CCN(CC(=O)[O-])CC1.[111In+3] (centres unmarked)	mouse, Hec50 endometrial tumour, small intestine	0.5 h post injection	11.1 ± 0.84
